Results of several laboratories.
Values joined by “and” are separate records of one study, mostly repeats; a detail may differ. ± marks the error that the study gave.

O=C(Nc1nc2cccc(-c3ccc(CN4CCS(=O)(=O)CC4)cc3)n2n1)C1CC1  treatment-emergent adverse events (refers to: musculoskeletal disorders; human rheumatoid arthritis patients; oral, 300 mg once daily, 4 weeks, regardless of relatedness): 5%
CCn1c(=O)c(-c2cc(NC(=O)Nc3ccccc3)c(F)cc2Br)cc2cnc(NC)cc21  participants with drug-related TEAE (refers to: nervous system disorders; human, severe hepatic impairment; oral, 50 mg single dose): 0%
C=CC(=O)N(C)CCOc1c(N)ncnc1-c1cc(F)cc(NC(=O)c2ccc(C3CC3)cc2F)c1C  mean residence time (human, whole blood; oral, 5 mg, single ascending dose): 0.62 h
Cc1ccc([C@@H]2O[C@H](CO)[C@@H](O)[C@H](O)[C@H]2O)cc1Cc1ccc(-c2ccc(F)cc2)s1  urinary potassium excretion change (Japanese type 2 diabetes patients; 25 mg, day 1, 24 h urine collection; reference: baseline): 4.28 mEq
CNCCOC12CC3(C)CC(C)(CC(Cn4ncc(-c5ccc(N6CCc7cccc(C(=O)Nc8nc9ccccc9s8)c7C6)nc5C(=O)O)c4C)(C3)C1)C2  QTcV interval change (beagle dog, male, anaesthetised; intravenous bolus, 0.03 mg/kg, 15 min; reference: baseline): 0 ms
COc1ncc(-c2nc3c(n2C(C)C)[C@H](c2ccc(Cl)cc2)N(c2cc(Cl)cn(C)c2=O)C3=O)c(OC)n1  median half-life (human patients, plasma; oral, 350 mg, high-dose arm, cycle 1 day 1): 14 h
COc1ccc(C[C@@H](C)[C@@H](C)Cc2ccc(OC)c(OC)c2)cc1OC  Tmax (beagle dog female, plasma; oral, 1000 mg/kg/day, day 28, median): 1 h
C[C@H]1O[C@@H](O[C@H]2[C@@H](O)C[C@H](O[C@H]3[C@@H](O)C[C@H](O[C@H]4CC[C@@]5(C)[C@H](CC[C@@H]6[C@@H]5C[C@@H](O)[C@]5(C)[C@@H](C7=CC(=O)OC7)CC[C@]65O)C4)O[C@@H]3C)O[C@@H]2C)C[C@H](O)[C@@H]1O  subjects with adverse event (refers to: arthropod bite; healthy men; oral, dose not given, 8 days, treatment-emergent, crossover trial): 0%
CC(=O)N(C)[C@H]1CCN(C(=O)c2cnc3c(c2)C[C@](C)(c2ccc(F)cc2)N3)C1  lactate dehydrogenase (human; dose not given): 575 U/L
Cc1cc(C(=O)NC(C)(C)COc2cccc3c2C(N)=NS(=O)(=O)N3)cc(C)n1  plasma peak area (LC-MS metabolite profiling; Sprague-Dawley rat, both sexes, plasma; oral, 100 mg/kg of parent drug, 24 (unit not given); higher = more metabolite): 76700 a.u.
CCN1/C(=C/C(C)=O)Sc2ccc(F)cc21  QT interval (cynomolgus monkey; oral, 100 mg/kg, 2 h post-dose): 239 ± 28 ms
CC(C)n1c(Nc2cccnc2)nc2cnc(Nc3ccc(N4CCN(C)CC4)cc3)nc21  subjects with adverse event (refers to: white blood cell count elevated; healthy male subjects; oral, 150 mg, study, together with: rifampin): 0%
O=C(N/N=C/c1ccccc1O)c1ccncc1  stability (rat plasma; 3 µM, 7 days, -80 °C, long-term storage): 95.8%
CO[C@H]1C[C@@H]2CC[C@@H](C)[C@@](O)(O2)C(=O)C(=O)N2CCCC[C@H]2C(=O)O[C@H]([C@H](C)C[C@@H]2CC[C@@H](OC(=O)NCCOCCOCCOCCOCCOCCOCCOCCOCCC(=O)N3CCc4cc(Cn5nc(-c6ccc7oc(N)nc7c6)c6c(N)ncnc65)ccc4C3)[C@H](OC)C2)C[C@@H](O)[C@H](C)/C=C(\C)[C@@H](O)[C@@H](OC)C(=O)[C@H](C)C[C@H](C)/C=C/C=C/C=C/1C  unbound AUClast (mice, plasma; intraperitoneal, 1 mg/kg, weekly dosing): 0.021 to 0.084 µM·h
CC(C)(C)c1ccc(C(O)CCCN2CCC(C(O)(c3ccccc3)c3ccccc3)CC2)cc1 (stereo not drawn)  mean blood pressure (male Hartley guinea pigs, anaesthetized; intravenous, 1 mg/kg over 10 min, after infusion): 41 ± 0.2 mmHg
O=C(CCCCCCC(=O)Nc1ccc(CC[18F])cc1)NO  tissue uptake (athymic nu/nu male mice, LNCaP xenograft, lungs; intravenous, 1 h): 2.4 ± 0.5 %ID/g
Cc1c(Br)cc(NC(=O)CS(=O)(=O)O)cc1Br  unbound Cmax (CD-1 mice, whole blood; oral, 10 mg/kg): < 16 nM
O=C(Nc1ccc(OC(F)(F)Cl)cc1)c1cnc(N2CC[C@@H](O)C2)c(-c2ccn[nH]2)c1  grade ≥2 event rate (per treatment cycle, refers to: ALT increase; human patients; oral, dose not given, 28 day cycle, dose-finding study): 0.9%
CCC(CC)C(=O)Oc1cccc(C(O)CCN)c1.O=CO (stereo not drawn)  ERG b-wave amplitude (scotopic ERG; BALB/cJ mice; intraperitoneal, 10 mg/kg, 2 h dark adaptation, together with: 10,000 lx photobleach, 10 min): 166 µV and 133 µV and 98 µV and 143 µV and 154 µV and 22 µV
Cc1cccc(CNC(=O)c2cn(CCNC(=O)c3ccccc3Sc3c([N+](=O)[O-])ncn3C)c3cc4c(cc3c2=O)OC(F)(F)O4)n1  C0 (Sprague-Dawley rat, male, whole blood; intravenous, 5 mg/kg): 456 ± 77.9 ng/mL
COc1ccc2c3c([nH]c2c1)[C@H](CC(C)C)N1C(=O)[C@H](CC(=O)NC(C)C)NC(=O)[C@@H]1C3  spleen to body weight ratio (wild-type mouse; oral, 100 mg/kg daily, 23 days): 0.27% and 0.26%
CC(C)(C)NCC(O)c1cc(O)cc(O)c1 (stereo not drawn)  fraction unbound (equilibrium dialysis; dog, plasma): 0.9
CNC(=O)c1ccc(-c2cnc3ncc(Cc4ccc5ncccc5c4)n3n2)cc1F  patients with adverse event (refers to: Pruritus; hepatocellular carcinoma patients; oral, 600 mg twice daily, expansion cohort, grade 3-4): 0%
COc1ccc2c(c1)CN(C(=O)CCN1CCC(Cc3ccccc3)CC1)CC[S@@+]2[O-]  QT interval (telemetry; conscious male beagle dogs; intravenous, 8 mg/kg, 0.5 h): 179 ± 33 ms
CCOc1c([C@H](C)n2nc(C)c3c(N)ncnc32)cc(Cl)c(F)c1[C@@H]1CNC(=O)C1  ECG observations (refers to: QTcF ≤450 ms; previously treated B-cell malignancy; oral, 45 mg once daily, baseline QTcF ≤450 ms): 100%
CCCc1nc2c(C)cc(-c3nc4ccccc4n3C)cc2n1Cc1ccc(-c2ccccc2C(=O)O)cc1  pKa (basic): 5.8
CCO[C@H]1CCN(Cc2c(OC)cc(C)c3[nH]ccc23)[C@H](c2ccc(C(=O)O)cc2)C1  incidence of abdominal pain (PNH patients, active haemolysis; oral, 200 mg, 8 weeks, treatment): 0%
Cc1cc(-c2nnc(N)nc2-c2ccc(F)cc2)cc(Cl)n1  patients with immune-mediated AE (refers to: Rash; IO-naive mCRPC patients, male; oral, dose not given, treatment-related, all grades): 0%
Cc1cc(-c2nccc3c2ccn3CC(=O)Nc2ccc(-c3cnccn3)cn2)ccn1  application site scab incidence (healthy human volunteers; oral, 7 mg single dose, single ascending dose): 16.7%
CSc1nc(C)c(Cl)c(O)n1  maximum haemolysis (sheep erythrocytes; 1 h, pH 7.5): 7%
COc1cc2c(Nc3ccc(Cl)c(Cl)c3F)ncnc2cc1OC[C@@H]1C[C@@H]2CN(C)C[C@@H]2C1  unbound brain concentration (FVB Mdr1a/b(-/-)Bcrp1(-/-) triple knockout mice, both sexes, brain; intraperitoneal infusion (osmotic pump), dose not given, 48 h): 33.1 ng/mL
O=C1Cc2cc(CCN3CCN(c4nsc5ccccc45)CC3)c(Cl)cc2N1  mean blood pressure (male Hartley guinea pigs, anaesthetized; intravenous, 0.3 mg/kg over 10 min, after infusion): 25 ± 0.4 mmHg
CCCCCN1C[C@H](O)[C@@H](O)[C@H](O)[C@@H]1CO  brain/plasma ratio (Hexb-/- mouse; 300 mg/kg/day): 0.09
C=CC(=O)Nc1cc(Nc2nccc(-c3cn(C)c4ccccc34)n2)c(OC)cc1N(C)CCN(C)C  recovery (human plasma; 24 h, storage stability, medium QC sample): 55.1%
CC(C)NCC(O)COc1cccc2ccccc12 (stereo not drawn)  mean blood pressure (male Hartley guinea pigs, anaesthetized; intravenous, 1 mg/kg over 10 min, after infusion): 39 ± 0.1 mmHg
COCc1cc(C(=O)Nc2cc([C@H]3CC[C@@H](OC(=O)NC(C)C)C3)[nH]n2)n(C)n1  unbound Cmax (OVCAR-3 xenograft, NOD/SCID gamma mice, plasma; oral, 25 twice daily, tumour growth inhibition study): 559 nM
CC1(C)S[C@@H]2[C@H](NC(=O)[C@H](N)c3ccc(O)cc3)C(=O)N2[C@H]1C(=O)O  mean blood pressure (male Hartley guinea pigs, anaesthetized; intravenous, 10 mg/kg over 10 min, after infusion): 37 ± 0.2 mmHg
COc1cc2c3c(n(CCCN4CCOCC4)c(=O)c2cc1OC)-c1cc2c(cc1C3=O)OCO2  CL (beagle dog, male, plasma; intravenous infusion, 100 mg/m^2, 1 h infusion, vehicle 1): 58.2 ± 19 L/h/m²
Cc1cc(C#N)cc(C)c1Oc1nc(Nc2ccc(C#N)cc2)nc(N)c1Br  maximum supersaturated concentration (solvent-shift UV; FaSSIF with 0.1% HPMCAS-M): 95 µg/mL
CC(C)(C)c1ccc(O)c(CN(Cc2cc(C(C)(C)C)ccc2O)C2CCC(NC(N)=O)CC2)c1 (stereo not drawn)  recovery (mouse brain; 5 ng/g, time not given, freeze-thaw, 3 cycles, -20 °C): 99.8 ± 1.18%
Cc1ccc(Sc2ccccc2N2CCNCC2)c(C)c1  participants with TEAE (refers to: abdominal pain; healthy adult men; oral, 10 mg daily, 12 days): 0%
CC(C)c1nc(N(C)S(C)(=O)=O)nc(-c2ccc(F)cc2)c1/C=C/[C@@H](O)C[C@@H](O)CC(=O)O  plasma concentration (Wistar albino rat, both sexes, plasma; oral, 20 mg/kg, 2 h): 653 ng/mL
N#Cc1ccc2c(c1)[C@H]1CCCN(C(=O)c3ccc4[nH]cnc4c3)[C@H]1C2  total testosterone level (human females; 40 mg, day 7): 1.1 nmol/L
O=C(N[C@H](Cc1c[nH]c2ccccc12)C(=O)Nc1ccncc1)c1ccc(N2CCN(c3ccc(F)cc3F)CC2)cc1F  concentration (Swiss Webster mouse, female, fat; oral, 50 mg/kg, 8 h, 20% Kolliphor vehicle): 13800 nM
O=C1NC(=O)C(Cc2ccc(O)cc2)S1 (stereo not drawn)  maximum haemolysis (sheep erythrocytes; 1 h, pH 7.5): 8.3%
CC[C@H](C)[C@H](NC(=O)CN)C(=O)N[C@@H](C)C(=O)N[C@@H](CC(=O)O)C(=O)N[C@@H](C)C(=O)N[C@H](C(=O)N[C@@H](CCCCN)C(=O)N[C@@H](CCCCN)C(=O)N[C@H](C(=O)N[C@@H](C)C(=O)N[C@@H](CCCCN)C(=O)N[C@@H](C)C(=O)N[C@@H](CC(C)C)C(=O)NCC(N)=O)[C@@H](C)CC)[C@@H](C)CC  mean residue ellipticity (circular dichroism at 222 nm; 30% TFE; 100 µM): -8630 deg cm2/dmol
CO[C@@H]1[C@H](O)[C@@H](CO)O[C@H]1n1c([N+](=O)[O-])nc2c(=O)[nH]c(N)nc21  nucleoside remaining fraction (depurination, RP-HPLC; citrate-phosphate buffer 0.5 mM; 110 min, pH 2, 37 °C): 0.899
COc1cc2c(CCNC(C)=O)c[nH]c2cc1O  specific activity (sulfation, substrate; pooled human lung cytosol; 50 µM, 30 min, together with: 50 mM NaF): 18 ± 2.18 pmol/min/mg
C[C@@H]1COCCN1c1cc(C2([S@](C)(=N)=O)CC2)nc(-c2cc[nH]c3nccc2-3)n1  Vomiting incidence (Japanese advanced solid tumour patients; oral, 160 mg twice daily, any grade): 16.7%
COc1cc2[nH]c(C)c(-c3ccc(C(F)(F)F)cc3)c(=O)c2cc1Cl  Papp (PAMPA; pH 7.4): < 5 ×10⁻⁶ cm/s
Cc1cc(Nc2cc3ncccc3c(N[C@@H]3C[C@H]4CC[C@@H](C3)N4CCC#N)n2)n[nH]1  pruritus incidence (healthy human subjects; oral, 300 mg, 2 weeks, single ascending dose): 0%
C[C@@H](Nc1cc(F)cc(F)c1)c1cc(C(=O)N(C)C)cc2c(=O)cc(N3CCOCC3)oc12  patients with related serious AE (patients with advanced solid tumours; oral, dose not given, dose-finding phase): 15.9%
O=C(O)CCC(=O)O.[2H]C([2H])([2H])Oc1cc(C)c2[nH]ccc2c1CN1CC[C@@H](C2CC2)C[C@H]1c1ccc(C(=O)O)cc1  subjects with dental ulcer TEAE (multiple ascending dose; healthy Chinese subjects; 300 mg once daily): 25%
CCc1c(-c2ccccc2)c(-c2ccccc2)nn1-c1ccccc1-c1cccc(OCC(=O)O)c1  AUMC(0-t) (Sprague-Dawley rat; intravenous, dose not given): 2750 h²·ng/mL and 2020 h²·ng/mL and 1570 h²·ng/mL
Cc1nc(C(=O)NCC(=O)O)c(O)c2ccc(Oc3ccccc3)cc12  pKa (acidic): 3.5
OC[C@H]1O[C@@H](c2ccc(F)c(Cc3cc4ccccc4s3)c2)[C@H](O)[C@@H](O)[C@@H]1O  hypoglycaemia-related adverse event (Japanese patients, type 1 diabetes; oral, 100 mg/day, onset day 4; reference: patients): 2%
CC(C)(C(=O)N1CCOc2c(C#N)cncc2C1)C(F)F  subjects with adverse event (refers to: Arthralgia; human; oral, 20 mg twice daily, 14 days, multiple ascending dose): 0%

Some of these lines once more:
CC(C)NCC(O)COc1cccc2ccccc12 (stereo not drawn)  mean blood pressure (male Hartley guinea pigs, anaesthetized; intravenous, 1 mg/kg over 10 min, after infusion): 39 ± 0.1 mmHg
COCc1cc(C(=O)Nc2cc([C@H]3CC[C@@H](OC(=O)NC(C)C)C3)[nH]n2)n(C)n1  unbound Cmax (OVCAR-3 xenograft, NOD/SCID gamma mice, plasma; oral, 25 twice daily, tumour growth inhibition study): 559 nM
CC1(C)S[C@@H]2[C@H](NC(=O)[C@H](N)c3ccc(O)cc3)C(=O)N2[C@H]1C(=O)O  mean blood pressure (male Hartley guinea pigs, anaesthetized; intravenous, 10 mg/kg over 10 min, after infusion): 37 ± 0.2 mmHg
COc1cc2c3c(n(CCCN4CCOCC4)c(=O)c2cc1OC)-c1cc2c(cc1C3=O)OCO2  CL (beagle dog, male, plasma; intravenous infusion, 100 mg/m^2, 1 h infusion, vehicle 1): 58.2 ± 19 L/h/m²
Cc1cc(C#N)cc(C)c1Oc1nc(Nc2ccc(C#N)cc2)nc(N)c1Br  maximum supersaturated concentration (solvent-shift UV; FaSSIF with 0.1% HPMCAS-M): 95 µg/mL
CC(C)(C)c1ccc(O)c(CN(Cc2cc(C(C)(C)C)ccc2O)C2CCC(NC(N)=O)CC2)c1 (stereo not drawn)  recovery (mouse brain; 5 ng/g, time not given, freeze-thaw, 3 cycles, -20 °C): 99.8 ± 1.18%
